Measurements collected from several papers.
Compare with care: the assays were run in different laboratories. Values joined by “and” are separate records of one study, mostly repeats; a detail may differ. ± gives the spread as reported.
ALB: Albumin (ALB, Homo sapiens, UniProt P02768)

Compound	tested on	assay	system	setting	scale	measurement	result
O=C(O)CNC(=O)Cc1ccccc1	–	–	ventricular cardiomyocytes, C57BL/6 mouse	dose not given, 0.804 s	–	sarcomere length	1.68 µm
NC(=O)c1cnc2[nH]ccc2c1N[C@@H]1[C@@H]2CC3C[C@H]1C[C@@](O)(C3)C2	–	flow cytometry, measured: memory T cells (CD3+ CD45RA-)	Japanese healthy subjects, peripheral blood	oral, 100 mg twice daily, day 7	–	change from baseline	-0.02%
Nc1nc2c(ncn2[C@@H]2O[C@H](COP(=O)(O)O)[C@@H](O)[C@H]2O)c(=O)[nH]1	GUK1 (Homo sapiens, UniProt Q16774)	substrate, NADH-coupled	–	KCl 50 mM, added: ATP 2.5 mM	–	Km	29.5 µM
CCc1ccccc1-c1ccc(C(=O)NC[C@@H](N)C(=O)O)s1	Glutamate receptor ionotropic, NMDA 1, with GluN2C (Grin1, Rattus norvegicus, UniProt P35439, S688A)	receptor activation	rat	added: glutamate 300 µM	–	log EC50	-2.72 µM
Cc1cc(-c2ccnc3[nH]cc(F)c23)cc(F)c1[C@@]1(O)[C@H](C)CN(C(=O)CN)C[C@@H]1C	Tyrosine-protein kinase JAK1 (JAK1, Homo sapiens, UniProt P23458)	ATP/ADP probe binding, KiNativ	HEK293T lysate	0.1 µM, activation loop domain 2	–	probe labelling inhibition	9.4%
CC(C)n1ncc2c(C(=O)NCC3(C)CNC3)cc(C3CC3)nc21	enterovirus A71	–	Tainan/4643/1998	1 µM	–	plaque area	0%
CC(C)C[C@H](NC(=O)C[C@H](O)[C@H](CC(C)C)NC(=O)[C@H](Cc1c[nH]cn1)NC(=O)CNC(=O)[C@@H](NC(=O)[C@H](C)NC(=O)[C@H](Cc1c[nH]c2ccccc12)NC(=O)[C@H](CCC(N)=O)NC(=O)[C@@H](Cc1ccccc1)NC(=O)COCCOCCNC(=O)CCC(C(=O)O)N1CCN(CC(=O)O)CCN(CC(=O)O)CCN(CC(=O)O)CC1)C(C)C)C(N)=O (stereo partly shown) [lutetium-177 labelled]	–	–	female BALB/c nu/nu mice, bone	intravenous, 100 pmol, 4 h, added: PA 300 µg	–	tissue uptake	0.06 ± 0.06 %ID/g
Cc1ccccc1C(=O)Nc1nc2ccccc2[nH]1	Adenosine receptor A2a (ADORA2A, Homo sapiens, UniProt P29274)	binding, radioligand competition	–	10 µM, added: [3H]ZM241385	–	displacement	1 ± 1%
CC(=O)/C=C/C1=C(C)CCCC1(C)C	uncharacterized protein (Spodoptera exigua, UniProt F1CEY0)	binding, competitor, fluorescence displacement	–	20 µM, pH 7.4, added: 1-NPN 20 µM	relative to: 1-NPN alone	relative fluorescence	64.3%
CC(C)C[C@H](N)C(=O)Nc1ccc2ccccc2c1	Puromycin-sensitive aminopeptidase (Rattus norvegicus, UniProt F1M9V7)	substrate	–	–	–	Km	2 µM
OC[C@H]1O[C@@H](Oc2cc3c(O)cc(O)cc3[o+]c2-c2ccc(O)c(O)c2)[C@H](O)[C@@H](O)[C@@H]1O	ALB	binding, fluorescence quenching	–	40 °C	–	Gibbs free energy	-6.47 kcal/mol
N#Cc1ccn2c(-c3ccncc3)c(-c3ccc(F)cc3)nc2c1	Carbon catabolite-derepressing protein kinase (SNF1, Candida albicans, UniProt P52497)	kinase binding, competitor, MIB/MS competition, measured: SNF1	Candida albicans cell lysate	1 µM	relative to: DMSO	log2 fold change	0.012
O=C(COP(=O)(O)O)[C@@H](O)[C@H](O)[C@H](O)COP(=O)(O)O	Pre-mRNA-processing-splicing factor 8 (PRPF8, Homo sapiens, UniProt Q6P2Q9)	thermal proteome profiling	HepG2 cell lysate	concentration not given, 57 over 37 °C	relative to: compound over control	thermal stability ratio	0.7 and 0.538 and 0.389
CC(C)[C@H](NC(=O)[C@H](Cc1ccc(O)cc1)NC(=O)[C@H](Cc1ccc(O)cc1)NC(=O)[C@@H]1CCCN1C(=O)[C@H](CCC(=O)O)NC(=O)[C@H](CCC(=O)O)NC(=O)[C@H](Cc1c[nH]c2ccccc12)NC(=O)[C@@H]1CCCN1C(=O)[C@@H](NC(=O)[C@H](CCC(N)=O)NC(=O)c1ccc2c(c1)C(=O)OC21c2ccc(O)cc2Oc2cc(O)ccc21)C(C)C)C(=O)N[C@H](C(=O)N[C@@H](CCCCN)C(=O)N[C@@H](CCCCN)C(=O)N[C@@H](CO)C(=O)N[C@@H](CO)C(=O)NCC(=O)NCC(N)=O)C(C)C	–	measured: total compound	human, plasma	intravenous infusion, 100 mg, 15 min	–	plasma concentration	4450 ng/mL
Cc1cc(Nc2ccc(S(F)(F)(F)(F)F)cc2)n2nc(C(C)(F)F)nc2n1	Plasmodium vivax	–	human Plasmodium vivax malaria patients	oral, 400 mg	–	patients with cardiac adverse events	0%
C=CC[C@@H]1c2ccc(OC)c(OC)c2CN2CCc3cc4c(cc3[C@H]12)OCO4	P2X purinoceptor 7 (P2RX7, Homo sapiens, UniProt Q99572)	ATP-evoked current, inhibitor, whole-cell patch clamp	HEK293 transfected	1 µM, wild type, added: ATP 1 mM	relative to: ATP alone	inhibition ratio	0.843 and 0.851 and 0.814
C[C@@H](c1ccc(-n2cnc3c(N)ncnc32)cc1)N1CCc2nn(C)c(Cc3ccccc3)c2C1=O	Tyrosine-protein kinase JAK1, JH2 pseudokinase domain (JAK1, Homo sapiens, UniProt P23458)	KINOMEscan	–	0.1 µM	relative to: DMSO control	remaining binding	85%
Nc1ncnc2c1ncn2[C@@H]1O[C@H](COP(=O)(O)CP(=O)(O)OP(=O)(O)O)[C@@H](O)[C@H]1O	P2X purinoceptor 1 (P2RX1, Homo sapiens, UniProt P51575, R139P)	saturation binding	HEK293	52 nM	–	specific binding	963 CCPM and 916 CCPM
Cn1cc(-c2ccc(-c3cncc(Cl)c3N3CCC4(CCNC4=O)CC3)cc2)cn1	COLO 205	gene expression, microarray, measured: NDUFA4L2 mRNA	–	concentration not given, 2 h	relative to: untreated cells	log2 fold change	2.59
O=c1cc(CO)occ1[O-].[Cl-].[W+4].c1cc[cH-]c1.c1cc[cH-]c1	ALB	binding, fluorescence quenching	–	310 K	–	Gibbs free energy change	-5.92 kcal/mol
NC/C(=C\F)COc1cccc(Cn2c(=S)[nH]c(=O)c3[nH]cnc32)c1	rat L-type calcium channel	radioligand binding	–	10 µM, dihydropyridine site	–	inhibition	< 50%
CC[C@H](C)[C@@H]1NC(=O)[C@H](Cc2ccc(-c3ccccc3)cc2)NC(=O)[C@H](CC(C)C)NC(=O)[C@@H]2[C@@H](c3ccccc3)CCN2C(=O)[C@@H](NC(=O)[C@H](CCCNC(=N)N)NC(=O)[C@H](CCCNC(=N)N)NC(C)=O)CSSC[C@@H](C(=O)N[C@@H](CCCNC(=N)N)C(=O)N[C@@H](CCCNC(=N)N)C(N)=O)NC(=O)[C@H](C(C)C)NC(=O)[C@@H]2CCCN2C(=O)[C@H](CC(=O)O)NC(=O)[C@H](Cc2ccc(O)cc2)NC(=O)[C@H](CO)NC1=O	GTPase KRas, GDP-bound (KRAS, Homo sapiens, UniProt P01116, G12D)	affinity selection mass spectrometry	–	mixture library 3, added: protein titration up to 2.5 µM	lower is stronger binding	lowest bound protein concentration	0.04 µM

For quick reference, copied from above:
Compound	tested on	assay	system	setting	scale	measurement	result
O=c1cc(CO)occ1[O-].[Cl-].[W+4].c1cc[cH-]c1.c1cc[cH-]c1	ALB	binding, fluorescence quenching	–	310 K	–	Gibbs free energy change	-5.92 kcal/mol
Cc1ccccc1C(=O)Nc1nc2ccccc2[nH]1	Adenosine receptor A2a (ADORA2A, Homo sapiens, UniProt P29274)	binding, radioligand competition	–	10 µM, added: [3H]ZM241385	–	displacement	1 ± 1%
